# Measurements of several laboratories.
# Protocols differ between the studies behind these lines. “And” joins repeats or separate records; there may be more than shown. ± marks the error that the study gave.
# Gria2/Glutamate receptor 3: Gria2/Glutamate receptor 3 (Rattus norvegicus, UniProt P19491+P19492)
# UniProt P19491, sequence (whole entry, looked up): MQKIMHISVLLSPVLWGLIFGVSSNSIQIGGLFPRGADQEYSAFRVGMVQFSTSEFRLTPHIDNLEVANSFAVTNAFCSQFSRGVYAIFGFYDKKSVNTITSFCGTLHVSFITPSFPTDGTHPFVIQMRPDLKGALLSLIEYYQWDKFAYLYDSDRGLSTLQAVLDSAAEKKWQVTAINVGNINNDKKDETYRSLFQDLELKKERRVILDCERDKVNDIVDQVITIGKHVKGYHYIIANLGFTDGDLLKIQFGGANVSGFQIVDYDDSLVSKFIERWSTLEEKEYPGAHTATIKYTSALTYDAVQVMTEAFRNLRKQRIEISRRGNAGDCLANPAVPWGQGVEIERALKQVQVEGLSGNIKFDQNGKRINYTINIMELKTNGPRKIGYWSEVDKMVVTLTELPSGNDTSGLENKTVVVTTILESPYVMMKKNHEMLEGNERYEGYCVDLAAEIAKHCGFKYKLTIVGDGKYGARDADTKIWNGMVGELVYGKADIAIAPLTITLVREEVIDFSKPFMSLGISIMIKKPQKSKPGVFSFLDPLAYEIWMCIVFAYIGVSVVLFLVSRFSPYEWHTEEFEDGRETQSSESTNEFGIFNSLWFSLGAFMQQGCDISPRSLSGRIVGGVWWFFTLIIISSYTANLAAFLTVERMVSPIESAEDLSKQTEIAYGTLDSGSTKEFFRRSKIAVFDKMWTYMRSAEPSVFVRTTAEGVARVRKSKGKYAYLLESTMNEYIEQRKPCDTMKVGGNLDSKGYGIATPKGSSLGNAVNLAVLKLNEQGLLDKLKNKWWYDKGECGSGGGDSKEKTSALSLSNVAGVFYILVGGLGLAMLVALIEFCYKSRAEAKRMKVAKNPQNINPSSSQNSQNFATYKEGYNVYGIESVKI
# UniProt P19492, sequence (whole entry, looked up): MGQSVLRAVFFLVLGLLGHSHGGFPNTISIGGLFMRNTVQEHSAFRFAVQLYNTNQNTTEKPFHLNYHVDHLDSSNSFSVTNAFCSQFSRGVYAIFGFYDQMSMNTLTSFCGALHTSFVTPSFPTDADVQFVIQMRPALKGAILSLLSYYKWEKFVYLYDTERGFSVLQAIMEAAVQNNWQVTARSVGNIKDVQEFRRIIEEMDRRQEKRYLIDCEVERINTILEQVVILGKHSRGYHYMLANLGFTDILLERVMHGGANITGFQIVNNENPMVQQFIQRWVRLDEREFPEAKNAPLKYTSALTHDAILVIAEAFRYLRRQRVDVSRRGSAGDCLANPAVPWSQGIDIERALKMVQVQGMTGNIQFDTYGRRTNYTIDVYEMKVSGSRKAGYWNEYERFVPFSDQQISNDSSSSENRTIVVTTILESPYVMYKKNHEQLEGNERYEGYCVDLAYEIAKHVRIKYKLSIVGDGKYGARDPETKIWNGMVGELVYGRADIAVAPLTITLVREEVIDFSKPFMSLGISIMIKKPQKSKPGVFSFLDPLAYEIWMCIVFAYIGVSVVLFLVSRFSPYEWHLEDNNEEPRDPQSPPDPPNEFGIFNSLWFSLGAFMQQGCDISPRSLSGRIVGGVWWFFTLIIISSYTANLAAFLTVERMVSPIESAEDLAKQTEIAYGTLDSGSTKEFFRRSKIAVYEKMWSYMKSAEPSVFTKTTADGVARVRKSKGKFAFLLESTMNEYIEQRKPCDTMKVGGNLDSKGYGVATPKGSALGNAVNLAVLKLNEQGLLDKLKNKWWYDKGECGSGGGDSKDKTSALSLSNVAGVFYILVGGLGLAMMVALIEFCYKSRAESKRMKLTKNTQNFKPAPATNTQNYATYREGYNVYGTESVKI
# USP14: Ubiquitin carboxyl-terminal hydrolase 14 (USP14, Homo sapiens, UniProt P54578)
# UniProt P54578, sequence (whole entry, looked up): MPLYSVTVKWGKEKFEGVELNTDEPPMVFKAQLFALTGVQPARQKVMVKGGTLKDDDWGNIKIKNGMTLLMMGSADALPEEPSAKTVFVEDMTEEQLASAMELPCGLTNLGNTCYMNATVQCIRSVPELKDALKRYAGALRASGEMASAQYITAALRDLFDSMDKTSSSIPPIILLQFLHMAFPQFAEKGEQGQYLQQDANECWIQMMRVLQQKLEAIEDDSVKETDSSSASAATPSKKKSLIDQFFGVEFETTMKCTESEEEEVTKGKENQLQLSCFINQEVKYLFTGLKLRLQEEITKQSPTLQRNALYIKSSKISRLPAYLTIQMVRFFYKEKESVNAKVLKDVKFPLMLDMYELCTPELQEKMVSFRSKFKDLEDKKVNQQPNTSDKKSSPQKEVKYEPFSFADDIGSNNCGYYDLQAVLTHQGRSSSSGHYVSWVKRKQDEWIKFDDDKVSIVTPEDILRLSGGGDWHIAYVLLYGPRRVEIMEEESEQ
# SLC6A9: Sodium- and chloride-dependent glycine transporter 1 (SLC6A9, Homo sapiens, UniProt P48067)
# UniProt Q9FLB1, sequence (whole entry, looked up): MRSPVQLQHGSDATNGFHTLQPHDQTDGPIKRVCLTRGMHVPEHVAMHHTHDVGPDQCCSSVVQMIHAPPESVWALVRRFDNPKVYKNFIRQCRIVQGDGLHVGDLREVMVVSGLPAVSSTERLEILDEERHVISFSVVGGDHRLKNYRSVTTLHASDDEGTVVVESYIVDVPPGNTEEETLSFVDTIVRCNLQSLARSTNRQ
# UniProt Q92633, sequence (whole entry, unmodified, looked up): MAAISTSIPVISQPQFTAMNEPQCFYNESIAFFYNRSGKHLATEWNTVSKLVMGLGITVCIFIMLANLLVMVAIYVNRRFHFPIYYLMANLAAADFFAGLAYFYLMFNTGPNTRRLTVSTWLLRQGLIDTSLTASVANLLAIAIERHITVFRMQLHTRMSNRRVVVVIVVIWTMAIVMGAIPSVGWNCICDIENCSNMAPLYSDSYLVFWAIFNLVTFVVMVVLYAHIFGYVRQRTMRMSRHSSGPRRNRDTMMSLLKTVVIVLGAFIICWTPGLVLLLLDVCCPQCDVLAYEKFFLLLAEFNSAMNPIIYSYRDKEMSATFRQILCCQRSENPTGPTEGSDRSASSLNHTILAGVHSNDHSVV
# UniProt O75131, sequence (whole entry, looked up): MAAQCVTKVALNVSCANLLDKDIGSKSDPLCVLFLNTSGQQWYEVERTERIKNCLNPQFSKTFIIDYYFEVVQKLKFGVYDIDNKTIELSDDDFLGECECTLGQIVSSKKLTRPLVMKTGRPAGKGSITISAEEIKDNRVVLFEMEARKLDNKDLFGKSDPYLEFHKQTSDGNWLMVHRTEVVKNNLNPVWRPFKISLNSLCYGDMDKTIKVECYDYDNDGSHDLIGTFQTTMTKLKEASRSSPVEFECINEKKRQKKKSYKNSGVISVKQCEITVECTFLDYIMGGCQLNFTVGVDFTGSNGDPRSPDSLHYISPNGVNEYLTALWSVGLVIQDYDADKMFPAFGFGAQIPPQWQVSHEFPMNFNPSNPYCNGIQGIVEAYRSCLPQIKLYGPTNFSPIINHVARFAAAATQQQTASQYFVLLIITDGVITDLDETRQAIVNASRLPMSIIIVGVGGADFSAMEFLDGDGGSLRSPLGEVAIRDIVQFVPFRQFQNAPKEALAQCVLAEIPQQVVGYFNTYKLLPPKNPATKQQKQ
# UniProt Q13148, sequence (whole entry, looked up): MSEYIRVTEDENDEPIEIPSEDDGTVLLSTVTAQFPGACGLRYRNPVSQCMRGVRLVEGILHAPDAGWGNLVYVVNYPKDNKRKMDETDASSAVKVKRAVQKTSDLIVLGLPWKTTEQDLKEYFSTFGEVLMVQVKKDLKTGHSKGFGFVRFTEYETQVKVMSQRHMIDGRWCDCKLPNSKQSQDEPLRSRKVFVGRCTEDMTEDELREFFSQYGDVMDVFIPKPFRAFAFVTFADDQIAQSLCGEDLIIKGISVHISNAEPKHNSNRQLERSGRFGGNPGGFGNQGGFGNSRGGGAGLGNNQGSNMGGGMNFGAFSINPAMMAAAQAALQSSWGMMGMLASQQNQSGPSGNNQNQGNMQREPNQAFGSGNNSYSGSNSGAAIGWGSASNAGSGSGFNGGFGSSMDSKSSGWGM
# UniProt P51575, sequence (whole entry, looked up): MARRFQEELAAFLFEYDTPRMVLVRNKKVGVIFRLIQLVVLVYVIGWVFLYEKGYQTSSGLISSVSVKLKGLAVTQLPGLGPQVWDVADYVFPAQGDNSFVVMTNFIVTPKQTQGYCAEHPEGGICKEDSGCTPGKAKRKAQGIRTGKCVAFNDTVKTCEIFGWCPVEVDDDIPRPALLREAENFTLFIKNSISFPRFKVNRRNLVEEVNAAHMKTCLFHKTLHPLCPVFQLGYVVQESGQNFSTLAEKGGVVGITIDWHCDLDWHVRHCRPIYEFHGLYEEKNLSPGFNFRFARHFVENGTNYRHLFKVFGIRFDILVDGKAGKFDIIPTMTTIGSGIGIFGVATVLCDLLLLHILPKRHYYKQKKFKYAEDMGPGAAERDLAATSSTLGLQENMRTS
# UniProt Q9H4M9, sequence (whole entry, looked up): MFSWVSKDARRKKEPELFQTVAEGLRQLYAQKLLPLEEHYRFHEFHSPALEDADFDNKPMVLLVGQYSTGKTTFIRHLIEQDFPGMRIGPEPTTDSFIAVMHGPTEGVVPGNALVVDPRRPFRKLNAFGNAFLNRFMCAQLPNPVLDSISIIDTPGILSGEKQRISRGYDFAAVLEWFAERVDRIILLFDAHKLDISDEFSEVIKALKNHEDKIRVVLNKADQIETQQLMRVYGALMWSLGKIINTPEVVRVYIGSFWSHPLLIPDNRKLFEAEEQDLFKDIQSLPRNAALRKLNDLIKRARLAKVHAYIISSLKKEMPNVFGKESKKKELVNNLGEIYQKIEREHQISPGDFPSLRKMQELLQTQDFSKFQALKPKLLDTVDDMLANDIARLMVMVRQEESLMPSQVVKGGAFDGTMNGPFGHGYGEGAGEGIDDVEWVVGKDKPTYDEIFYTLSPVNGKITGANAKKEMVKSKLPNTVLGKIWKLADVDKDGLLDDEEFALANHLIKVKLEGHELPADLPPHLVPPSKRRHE
# UniProt Q9NRF9, sequence (whole entry, looked up): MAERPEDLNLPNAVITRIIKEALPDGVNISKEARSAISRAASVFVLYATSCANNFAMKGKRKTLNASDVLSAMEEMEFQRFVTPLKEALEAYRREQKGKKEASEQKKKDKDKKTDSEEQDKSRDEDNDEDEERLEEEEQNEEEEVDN
SMILES,target,assay,test system,setting,how to read,measurement,value
O=C(O)Cc1cc2c(cc1C(=O)c1ccccc1Cl)OCO2,Gria2/Glutamate receptor 3,"glutamate-evoked current, whole-cell patch clamp",HEK-293T,"concentration not given, pH 7.4, holding potential -60 mV, together with: 10 mM glutamate",,current amplitude,73 ± 4 pA
O=C(N1CCCC1)n1cc(-c2ccc(-c3ccccc3)cc2)nn1,"Prolyl endopeptidase (Mus musculus, UniProt Q9QUR6)","enzyme activity, inhibitor, competitive ABPP-SILAC, item: Prep",mouse T-cells,"concentration not given, 4 h, treated in situ",reference: DMSO,activity ratio,1.27
Cc1cc(NC(=O)c2cccc(N)c2)ccc1Nc1nccc(-c2cccnc2)n1,"Mitogen-activated protein kinase 9 (MAPK9, Homo sapiens, UniProt P45984)","enzyme activity, inhibitor",,"400 µM, unit not given",reference: vehicle,remaining activity,0.00103
Fc1cccc(-c2cc(CN3c4ccccc4C=Cc4ccccc43)on2)c1,"PPO3 (Agaricus bisporus, UniProt C7FF04)","enzyme activity, inhibitor",,concentration not given,,apparent Km,4.87 mM
N[C@H]1CC[C@H](Nc2nccc(-c3cccnc3Oc3ccc(NC(=O)NC4CC4)c4ccccc34)n2)CC1,"Copine-3 (CPNE3, Homo sapiens, UniProt O75131)","kinobead competition pulldown, item: CPNE3",HEK293/HCT116 lysate mixture,"10 µM, 1 h, 4 °C",lower = stronger competition,log2 LFQ intensity,20.5 and 20.8 and 20 and 19.9
N=C(N)NCCS(=O)(=O)O,"Sodium- and chloride-dependent taurine transporter (SLC6A6, Homo sapiens, UniProt P31641, G62A)","binding, microscale thermophoresis",,"125 µM, room temperature, together with: 50 nM labelled protein",higher = more binding,normalised MST signal,-0.0634
CC(C)CCN1COc2ccc3c4c(oc3c2C1)C(=O)c1ccccc1C4=O,USP14,"enzyme activity, inhibitor",,17 µM,,inhibition,30%
CCCCN1CC(O)(C(=O)O)C1,SLC6A9,cell-free assay,,1 µM,,remaining signal,81.7%
CCOC(=O)c1c(C)oc2c1C(=CNCCO)C(=O)c1ccccc1-2,USP14,"enzyme activity, inhibitor",,17 µM,,inhibition,52%
CCCCCCOc1ccc(C(=O)OCCN2CC=CCC2)cc1,"Muscarinic acetylcholine receptor M1 (CHRM1, Homo sapiens, UniProt P11229)",,membranes,"1 µM, 15 h, no carbachol",reference: control,basal binding,1.02 ± 0.03 fold
O=[N+]([O-])c1cc(Br)cc([N+](=O)[O-])c1NS(=O)(=O)c1ccc(Br)cc1,"PYL5, with HAB1 (Arabidopsis thaliana, UniProt Q9FLB1)",antagonist,,"10 µM, together with: ABA 5 µM",higher = more HAB1 activity,HAB1 phosphatase activity,0.096 a.u. and 0.087 a.u. and 0.089 a.u.
O=C(N[C@@H](Cc1coc2ccccc12)B(O)O)[C@@H]1C[C@H]2CC[C@@H]1O2,"Proteasome component C5/PSMB8 (Homo sapiens, UniProt P20618+P28062)","inhibitor, jump dilution",,1 h,,reversibility,68 ± 11.5%
CC1=C(/C=C/C(C)=C\C=C\C(C)=C\C=O)C(C)(C)CCC1,"Rhodopsin (RHO, Homo sapiens, UniProt P08100, P23H)","ER retention, co-localization with calnexin",COS-7 transfected P23H,10 µM,,Pearson correlation coefficient,0.685 ± 0.016
COC(=O)[C@@]1(Cc2ccccc2)C=C(C(=O)OC(C)(C)C)C(=O)CC1,"Mitogen-activated protein kinase 14 (MAPK14, Homo sapiens, UniProt Q16539, C119V)","peptide binding, fluorescence polarization",,62.5 µM,,fraction bound,0.153
COC(=O)Cc1cc2c(cc1C(=O)c1ccc(Cl)cc1Cl)OCO2,Gria2/Glutamate receptor 3,"glutamate-evoked current, whole-cell patch clamp",HEK-293T,"concentration not given, glutamate alone after washout, together with: glutamate",,current amplitude after recovery,468 ± 38 pA
CCOC(=O)C1(C)C(Br)=C(Cl)C(=O)N1c1ccc(Cl)cc1 (stereo not shown),"Rac GTPase-activating protein 1 (Homo sapiens, UniProt Q9H0H5)","GAP activity, malachite green phosphate",,"concentration not given, orthogonal retest",,inhibition,54.4%
O=C1c2sc(-c3ccc(N4CCC(CO)CC4)nc3F)nc2CCN1c1cccnc1,"TAR DNA-binding protein 43, aggregated (TARDBP, Homo sapiens, UniProt Q13148)",radioligand binding,"human, FTLD-TDP type C sarkosyl-insoluble extract",52.06 nM,,specific binding,0.795 nM and 0.454 nM and 0.487 nM
CC(C)[C@@H]1NC(=O)[C@H](Cc2ccccc2)NC(=O)CSC[C@@H](C(N)=O)NC(=O)[C@H](CCC(=O)O)NC(=O)[C@H](CO)NC(=O)[C@H](Cc2c[nH]c3cccc(Cl)c23)NC(=O)[C@H](C2CCCCC2)NC(=O)[C@H](C(C)C)NC(=O)[C@H](Cc2ccc(O)cc2)NC(=O)[C@H](CC(=O)O)NC(=O)[C@H](Cc2c[nH]c3ccccc23)NC(=O)[C@H](Cc2ccc(N)nc2)NC(=O)[C@H](Cc2c[nH]c3ccc(Cl)cc23)NC(=O)[C@H](CCC(=O)O)NC1=O,"Interleukin-1 receptor-like 2 (IL1RL2, Homo sapiens, UniProt Q9HB29)","reporter gene (SEAP), inhibitor, HEK-Blue IL-36R reporter",HEK-Blue IL-36R cells,"33.33 µM, 6 h, together with: IL-36β 30 ng/mL",,remaining activity,91%
Cn1c(=O)n(C2CCC(=O)NC2=O)c2ccc(C3CCN(CC(=O)Nc4cccc(CS(=O)(=O)N5CC[C@H](Nc6cccc(-c7sc(C(=O)O)c(OCC(=O)O)c7Cl)c6)CC5(C)C)c4)CC3)cc21 (stereo partly shown),"Tyrosine-protein phosphatase non-receptor type 2 (Ptpn2, Mus musculus, UniProt Q06180)","degrader, Western blot",B16-F10 cells,"10 µM, together with: bortezomib 10 µM pre-treatment",reference: untreated,remaining protein,1.19% and 7%
OC1Cc2ccccc2CC1N1CCC(c2ccc(Br)cc2)CC1 (racemic),"Sigma non-opioid intracellular receptor 1 (SIGMAR1, Homo sapiens, UniProt Q99720)",,"rat liver (sigma2), human sigma1",,reference: Ki sigma2 over Ki sigma1,selectivity ratio,8.1
NC(=O)C[C@@H]1NC(=O)[C@H](Cc2ccc(O)cc2)NC(=O)CNC(=O)CNC(=O)[C@H](CCC(=O)O)NC(=O)[C@H](CCC(=O)O)NC(=O)[C@H](Cc2ccccc2)NC(=O)[C@@H]2CCCN2C1=O,"EH domain-containing protein 1, EH domain (Homo sapiens, UniProt Q9H4M9)","peptide binding, ITC",,"concentration not given, 150 mM NaCl",,binding stoichiometry,1.1 and 1.04
CO[B-]1(OC)n2c(C)cc(C)c2C(CCCN2CC=C(c3ccccc3)CC2)=C2C(C)=CC(C)=[N+]21,SLC6A9,cell-free assay,,1 µM,,remaining signal,84%
CC[C@H](C)[C@H](NC(=O)[C@@H](NC(=O)[C@@H](NC(=O)[C@@H](NC(=O)[C@H](CCCNC(=N)N)NC(=O)[C@H](CCC(=O)O)NC(=O)[C@H](CCC(=O)O)NC(=O)[C@H](C)NC(=O)[C@H](CCC(=O)O)NC(=O)CNC(=O)[C@H](C)NC(=O)CN)C(C)C)C(C)C)C(C)C)C(=O)N[C@@H](CC(=O)O)C(=O)N[C@@H](CC(=O)O)C(=O)N[C@@H](CC(=O)O)C(=O)N[C@@H](CCC(=O)O)C(=O)N[C@@H](CC(=O)O)C(=O)N[C@@H](CC(=O)O)C(=O)N[C@@H](CC(=O)O)C(=O)N[C@@H](C)C(=O)N[C@@H](CCC(=O)O)C(=O)N[C@@H](CC(N)=O)C(=O)N[C@@H](CO)C(=O)N[C@@H](CO)C(=O)N[C@@H](CO)C(=O)N[C@@H](CCCNC(=N)N)C(=O)N[C@@H](Cc1ccc(O)cc1)C(=O)O,"Small ubiquitin-related modifier 1, residues 17-97 (Homo sapiens, UniProt P63165, C52A)",isothermal titration calorimetry,,"pH 7.4, N-terminally truncated SUMO1",,-TΔS,-15.1 ± 0.1 kcal/mol
CCCCCC=CC=C1C(=O)C=CC1CC=CCCCC(=O)O (stereo not shown),"3-ketoacyl-CoA thiolase, mitochondrial (Homo sapiens, UniProt P42765)","competitive isoTOP-ABPP, item: ACAA2 cysteine peptide",Ramos soluble proteome,"100 µM, together with: iodoacetamide probe","reference: DMSO over compound-treated, higher = stronger cysteine blockade",isoTOP-ABPP competition ratio,0.9
COc1cc(Nc2nccc(-c3cnn4nc(OC)ccc34)n2)cc(C(F)(F)F)c1,"Phosphatidylinositol 4,5-bisphosphate 3-kinase catalytic subunit alpha isoform (PIK3CA, Homo sapiens, UniProt P42336, M1043I)",binding,,1 µM,,remaining binding,100%
CCCCCCCCCCCCC/C=C/C=O,"DNA polymerase epsilon subunit 3 (Homo sapiens, UniProt Q9NRF9)","competitive isoTOP-ABPP, item: POLE3 cysteine peptide",Ramos soluble proteome,"100 µM, together with: iodoacetamide probe","reference: DMSO over compound-treated, higher = stronger cysteine blockade",isoTOP-ABPP competition ratio,1
O=C(Nc1cc(C(=O)Nc2ccc(S(=O)(=O)O)cc2S(=O)(=O)O)cc(C(=O)Nc2ccc(S(=O)(=O)O)cc2S(=O)(=O)O)c1)Nc1cc(C(=O)Nc2ccc(S(=O)(=O)O)cc2S(=O)(=O)O)cc(C(=O)Nc2ccc(S(=O)(=O)O)cc2S(=O)(=O)O)c1,"P2X purinoceptor 1 (P2RX1, Homo sapiens, UniProt P51575)","antagonist, calcium influx",,"10 nM, together with: submaximal α,β-methylene ATP",reference: ionomycin response,calcium influx,100% and 96% and 85.4%
N#CC(=CNc1ccc(C(=O)O)cc1)c1nc2ccccc2[nH]1,USP14,"enzyme activity, inhibitor",,17 µM,,inhibition,4%
C[C@H](NC(=O)CN)C(=O)NCC(=O)N[C@@H](C)C(=O)N[C@@H](C)C(=O)NCC(=O)NCC(=O)N[C@@H](C)C(=O)NCC(=O)NCC(=O)NCC(=O)NCC(=O)NCC(=O)NCC(=O)NCC(=O)N[C@@H](CCCCNC(=O)CCCC[C@@H]1SC[C@@H]2NC(=O)N[C@@H]21)C(N)=O,"Programmed cell death 1 ligand 1 (Cd274, Mus musculus, UniProt Q9EP73)","flow cytometry, item: Cd274",,"concentration not given, 24 h",reference: 0 h,relative surface expression,1.16 and 1.08
COC(=O)[C@@]1(C(C)C)C=C(C(=O)Nc2cccc(C(=O)Nc3ccc(Nc4nccc(-c5cccnc5)n4)c(C)c3)c2)C(=O)CC1,"Mitogen-activated protein kinase 8 (MAPK8, Homo sapiens, UniProt P45983, C116S)","binding, SPR",,"100, 300, 1000 nM, 1:1 binding model",,koff,0.108 s⁻¹
O=C(O)Cc1cc2c(cc1C(=O)c1cccc(Cl)c1)OCO2,Gria2/Glutamate receptor 3,"glutamate-evoked current, whole-cell patch clamp",HEK-293T,"concentration not given, weighted tau, 500 ms pulse, together with: glutamate",,desensitization time constant,0.8 ± 0.06 ms
CC(=O)NCC1CCCCN1c1nc(NCC2Cc3ccccc3O2)nc(N2CC3C(CCOc4cc(-c5scnc5C)ccc4CNC(=O)C4CC(O)CN4C(=O)C(NC(=O)C4(F)CC4)C(C)(C)C)C3C2)n1 (stereo not shown),"VHL/BRD9, with Elongin B/C (Homo sapiens, UniProt P40337+Q9H8M2)",native mass spectrometry,,"5 µM, together with: BRD9 and VCB at 5 µM",reference: unbound BRD9,ternary complex formation,70%
Cc1cc(N)c(O)cc1C,USP14,"enzyme activity, inhibitor",,17 µM,,inhibition,61%
CCN(CC)C(CO)c1cccc2c(C)c(C)oc12 (stereo not shown),"Lysophosphatidic acid receptor 1 (LPAR1, Homo sapiens, UniProt Q92633, W210A)","G-protein dissociation, agonist, NanoBiT",HEK-293T,"1 µM, W210A mutant",reference: baseline luminescence,fold change,0.589 and 0.757 and 0.922 and 0.579 and 0.515 and 0.657

# Some of these lines once more:
SMILES,target,assay,test system,setting,how to read,measurement,value
O=C(Nc1cc(C(=O)Nc2ccc(S(=O)(=O)O)cc2S(=O)(=O)O)cc(C(=O)Nc2ccc(S(=O)(=O)O)cc2S(=O)(=O)O)c1)Nc1cc(C(=O)Nc2ccc(S(=O)(=O)O)cc2S(=O)(=O)O)cc(C(=O)Nc2ccc(S(=O)(=O)O)cc2S(=O)(=O)O)c1,"P2X purinoceptor 1 (P2RX1, Homo sapiens, UniProt P51575)","antagonist, calcium influx",,"10 nM, together with: submaximal α,β-methylene ATP",reference: ionomycin response,calcium influx,100% and 96% and 85.4%
CCN(CC)C(CO)c1cccc2c(C)c(C)oc12 (stereo not shown),"Lysophosphatidic acid receptor 1 (LPAR1, Homo sapiens, UniProt Q92633, W210A)","G-protein dissociation, agonist, NanoBiT",HEK-293T,"1 µM, W210A mutant",reference: baseline luminescence,fold change,0.589 and 0.757 and 0.922 and 0.579 and 0.515 and 0.657
COC(=O)Cc1cc2c(cc1C(=O)c1ccc(Cl)cc1Cl)OCO2,Gria2/Glutamate receptor 3,"glutamate-evoked current, whole-cell patch clamp",HEK-293T,"concentration not given, glutamate alone after washout, together with: glutamate",,current amplitude after recovery,468 ± 38 pA
COC(=O)[C@@]1(Cc2ccccc2)C=C(C(=O)OC(C)(C)C)C(=O)CC1,"Mitogen-activated protein kinase 14 (MAPK14, Homo sapiens, UniProt Q16539, C119V)","peptide binding, fluorescence polarization",,62.5 µM,,fraction bound,0.153
